Published values pooled from the literature.
Each line is one published result; not all experiments were run side by side. ± gives the spread as reported.

With `Cc1cc2sc(N)nc2c2cccnc12` the half-life was 2.84 h (BALB/c mice, female, plasma; intraperitoneal, 30 mg/kg).
With `Cc1c(C(=O)O)ccc2c3n(nc12)[C@@H]1[C@H](C3)N(CC2CC2)[C@@]2(C(=O)Nc3cc(Cl)ccc32)[C@H]1c1cccc(Cl)c1F` the half-life was 9.3 h (female BALB/c nude mice, SJSA-1 xenograft, plasma; oral, 1 mg/kg twice daily, 2 doses, mean).
`COc1cc([C@H]2Oc3ccc([C@H]4Oc5cc(O)cc(O)c5C(=O)[C@@H]4O)cc3O[C@@H]2CO)ccc1O` has a half-life of 0.31 h (FVB wild-type mice, plasma; oral gavage, 500 mg/kg silymarin).
For `CC1CCNc2c(C(=O)NC/C=C/S(C)(=O)=O)cccc21` (centres unmarked), the half-life was ~0.833 h (male C57BL/6 mice, plasma; oral, 10 mg/kg).
`O=[N+]([O-])c1ccc(-c2ccc(O)cc2)c2cccnc12` gave a half-life of 0.742 h (ICR mice male, plasma; oral, 5 mg/kg).
With `CNC(=O)c1cc(Oc2ccc(NC(=O)Nc3ccc(Cl)c(C(F)(F)F)c3)c(F)c2)ccn1` the half-life was 12.5 ± 1.75 h (male DBA/1lacJ Oatp1b2 knockout mice, plasma; oral, 10 mg/kg single dose).
`Cc1cc(C)c(CNC(=O)c2cc(Cl)c3c(c2C)O[C@@](C)([C@H]2CC[C@H](N(C)C)CC2)O3)c(=O)[nH]1` has a half-life of 3 h (female CB17 SCID mice, HT-1376 xenograft, plasma; 75 mg/kg, day 1).
With `COc1cccc2c(N3CCC(CCP(=O)(O)O)CC3)ncnc12` the half-life was 2.6 h (LC-MS; female mice, MC-38 subcutaneous tumour, serum; 50 mg/kg).
The half-life of `CCN1CCN(Cc2ccc(NC(=O)c3ccc(C)c(NC(=O)c4cncc(-c5cccs5)c4)c3)cc2C(F)(F)F)CC1` is reported as 1.77 h (C57BL/6 mice, epithelial lining fluid; intraperitoneal, 15 mg/kg).
`c1ccc(-c2nc(N3CCC(c4ccccn4)C3)c3ccccc3n2)nc1` (centres unmarked) has a half-life of 2.3 h (female Balb/c mice, plasma; intravenous, 2 mg/kg, added: ABT 2 h prior).
For `COc1cc([C@H]2Oc3cc([C@H]4Oc5cc(O)cc(O)c5C(=O)[C@@H]4O)ccc3O[C@@H]2CO)ccc1O`, the half-life was 0.34 h (FVB wild-type mice, plasma; oral gavage, 500 mg/kg silymarin).

A few entries again:
For `CC1CCNc2c(C(=O)NC/C=C/S(C)(=O)=O)cccc21` (centres unmarked), the half-life was ~0.833 h (male C57BL/6 mice, plasma; oral, 10 mg/kg).
